Published values gathered from unrelated publications.
Compare with care: the assays were run in different laboratories. ± marks the error that the study gave.
HTR2A: 5-hydroxytryptamine receptor 2A (HTR2A, Homo sapiens, UniProt P28223)
Chain of UniProt P28223 (whole entry, looked up): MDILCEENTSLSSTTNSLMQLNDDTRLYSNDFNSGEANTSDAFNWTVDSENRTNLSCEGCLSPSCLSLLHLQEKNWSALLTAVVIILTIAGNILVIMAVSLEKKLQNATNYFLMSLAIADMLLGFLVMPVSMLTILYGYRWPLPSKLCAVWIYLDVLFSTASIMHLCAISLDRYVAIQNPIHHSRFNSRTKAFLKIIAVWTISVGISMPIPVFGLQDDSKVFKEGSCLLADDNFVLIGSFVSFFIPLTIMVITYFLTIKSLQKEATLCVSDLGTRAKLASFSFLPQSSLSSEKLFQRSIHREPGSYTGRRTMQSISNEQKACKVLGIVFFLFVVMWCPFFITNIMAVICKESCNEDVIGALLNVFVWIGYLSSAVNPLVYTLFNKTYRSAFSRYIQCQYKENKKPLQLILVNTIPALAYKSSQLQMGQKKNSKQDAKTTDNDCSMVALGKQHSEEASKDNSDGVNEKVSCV
SCTR: Secretin receptor (SCTR, Homo sapiens, UniProt P47872)
Chain of UniProt P47872 (whole entry, looked up): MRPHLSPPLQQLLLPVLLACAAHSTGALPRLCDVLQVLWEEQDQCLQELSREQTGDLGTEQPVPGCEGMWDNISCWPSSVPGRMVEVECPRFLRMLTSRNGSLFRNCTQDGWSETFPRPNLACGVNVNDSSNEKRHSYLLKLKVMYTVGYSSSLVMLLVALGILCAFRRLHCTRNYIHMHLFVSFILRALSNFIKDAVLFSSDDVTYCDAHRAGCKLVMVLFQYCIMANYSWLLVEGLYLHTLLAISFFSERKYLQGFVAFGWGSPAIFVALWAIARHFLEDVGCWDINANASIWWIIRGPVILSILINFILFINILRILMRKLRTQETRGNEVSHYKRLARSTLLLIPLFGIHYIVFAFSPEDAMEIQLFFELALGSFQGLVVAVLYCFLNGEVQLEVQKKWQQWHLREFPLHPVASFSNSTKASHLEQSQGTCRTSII
LPAR2: Lysophosphatidic acid receptor 2 (LPAR2, Homo sapiens, UniProt Q9HBW0)
Chain of UniProt Q9HBW0 (whole entry, looked up): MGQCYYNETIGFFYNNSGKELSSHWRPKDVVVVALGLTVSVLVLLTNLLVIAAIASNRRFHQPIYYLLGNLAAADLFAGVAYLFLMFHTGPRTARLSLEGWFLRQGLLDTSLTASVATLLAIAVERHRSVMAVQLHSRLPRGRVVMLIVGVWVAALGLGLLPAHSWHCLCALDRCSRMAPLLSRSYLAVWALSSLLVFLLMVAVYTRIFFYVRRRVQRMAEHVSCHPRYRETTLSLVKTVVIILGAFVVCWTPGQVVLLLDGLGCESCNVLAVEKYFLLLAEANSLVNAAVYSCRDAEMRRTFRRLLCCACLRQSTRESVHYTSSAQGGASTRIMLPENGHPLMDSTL
FFAR1: Free fatty acid receptor 1 (FFAR1, Homo sapiens, UniProt O14842)
Chain of UniProt O14842 (whole entry, looked up): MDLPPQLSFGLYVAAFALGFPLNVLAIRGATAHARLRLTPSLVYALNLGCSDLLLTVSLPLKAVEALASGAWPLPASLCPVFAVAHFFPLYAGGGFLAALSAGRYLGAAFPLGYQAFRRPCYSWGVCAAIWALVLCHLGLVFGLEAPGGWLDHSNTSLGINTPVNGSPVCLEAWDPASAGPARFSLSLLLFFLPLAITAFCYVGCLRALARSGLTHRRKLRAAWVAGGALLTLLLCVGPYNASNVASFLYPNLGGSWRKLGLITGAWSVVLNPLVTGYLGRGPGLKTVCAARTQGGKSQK
HTR2C: 5-hydroxytryptamine receptor 2C (HTR2C, Homo sapiens, UniProt P28335)
Chain of UniProt P28335 (whole entry, looked up): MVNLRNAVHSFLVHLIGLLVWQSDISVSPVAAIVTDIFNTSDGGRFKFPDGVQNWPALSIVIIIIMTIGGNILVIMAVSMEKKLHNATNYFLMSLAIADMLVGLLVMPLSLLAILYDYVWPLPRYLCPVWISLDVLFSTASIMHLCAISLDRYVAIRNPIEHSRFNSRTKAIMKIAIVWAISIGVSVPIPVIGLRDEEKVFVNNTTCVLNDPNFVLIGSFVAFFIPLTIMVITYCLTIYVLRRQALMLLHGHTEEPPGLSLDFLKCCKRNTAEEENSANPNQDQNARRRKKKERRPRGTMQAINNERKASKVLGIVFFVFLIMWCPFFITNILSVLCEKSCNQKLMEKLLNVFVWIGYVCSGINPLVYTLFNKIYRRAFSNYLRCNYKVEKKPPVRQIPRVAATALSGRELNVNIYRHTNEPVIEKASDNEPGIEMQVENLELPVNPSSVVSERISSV

Structure (SMILES) = CN(CCc1ccc(O)c(Br)c1)CCc1nccs1; target = HTR2A; test = β-arrestin recruitment, agonist; Emax = 35.2%
Structure (SMILES) = COc1ccccc1-c1cc(C(F)(F)F)nc(S(=O)(=O)CCCC(=O)Nc2ccn(Cc3ccc(C)cc3)n2)n1; target = SCTR; test = cAMP accumulation, positive allosteric modulator; system = CHO-K1 overexpressing SCTR; setting = together with: EC10-EC20 secretin peptide mix; how to read = reference: EC95 peptide mix; Emax = 42 ± 12%
Structure (SMILES) = Clc1ccc(-c2n[nH]cc2CN2CCN(C34CC(C3)C4)CC2)cc1; target = HTR2A; test = β-arrestin recruitment, agonist; Emax = 79.3%
Structure (SMILES) = CCCCCCCC/C=C\CCCCCCCC(=O)O[C@H]1CCCO[C@@H]1COP(=O)(O)S (stereo partly drawn); target = LPAR2; test = agonist, TGFα shedding; Emax = 33%
Structure (SMILES) = CC(c1ncccn1)N1CCCC(c2ccc(O)cc2)C1 (stereo not drawn); target = HTR2A; test = β-arrestin recruitment, agonist; Emax = 69.3%
Structure (SMILES) = COc1ccc(-c2cc(C(F)(F)F)nc(S(=O)(=O)CCCC(=O)Nc3ccc(F)cc3F)n2)cc1OC; target = SCTR; test = cAMP, agonist; Emax = 32%
Structure (SMILES) = CCCCCCCC/C=C\CCCCCCCC(=O)O[C@@H]1C=CCO[C@H]1COP(=O)(O)S (stereo partly drawn); target = LPAR2; test = agonist, TGFα shedding; Emax = 41%
Structure (SMILES) = CC=CC(CC(=O)O)c1ccc(OCc2ccc(-c3cc(OC)ccc3F)cc2)cc1 (stereo not drawn); target = FFAR1; test = IP turnover, agonist; system = COS-7 transient; how to read = reference: GW9508 Emax; Emax = 171 ± 9%
Structure (SMILES) = OC(c1cccc(C2=CCCNC2)n1)C(F)(F)F (stereo not drawn); target = HTR2C; test = β-arrestin recruitment, agonist; Emax = 72.6%
Structure (SMILES) = COc1ccc(-c2cc(C(F)(F)F)nc(NCc3ccccc3)n2)cc1; target = SCTR; test = increase of tracer binding, TR-FRET; system = HEK293 membranes; setting = together with: Fluo-Sec 6 nM; Emax = 151 ± 11%
Structure (SMILES) = CCCCCCCC/C=C\CCCCCCCC(=O)OC[C@@H]1OCCC[C@H]1OP(=O)(O)S (stereo partly drawn); target = LPAR2; test = agonist, TGFα shedding; Emax = 11%
Structure (SMILES) = COc1ccc(-c2cc(C(F)(F)F)nc(SCC(=O)N(C)c3ccccc3)n2)cc1; target = SCTR; test = increase of tracer binding, TR-FRET; system = HEK293 membranes; setting = together with: Fluo-Sec 6 nM; Emax = 172 ± 26%
Structure (SMILES) = O=C1NC(=O)C(C2CCOc3cc(Oc4ccc(C(F)(F)F)cc4Cl)ccc32)S1 (stereo not drawn); target = FFAR1; test = IP turnover, agonist; system = COS-7 transient; how to read = reference: GW9508 Emax; Emax = 68 ± 5%
Structure (SMILES) = CN1CCC=C(c2cc(F)cc3[nH]ccc23)C1; target = HTR2C; test = β-arrestin recruitment, agonist; Emax = 22.5%
Structure (SMILES) = COc1ccc(-c2cc(C(F)(F)F)nc(SCCC(=O)Nc3cc(F)ccc3F)n2)cc1; target = SCTR; test = increase of tracer binding, TR-FRET; system = HEK293 membranes; setting = together with: Fluo-Sec 6 nM; Emax = 128 ± 11%

Repeated from above:
Structure (SMILES) = COc1ccc(-c2cc(C(F)(F)F)nc(NCc3ccccc3)n2)cc1; target = SCTR; test = increase of tracer binding, TR-FRET; system = HEK293 membranes; setting = together with: Fluo-Sec 6 nM; Emax = 151 ± 11%
